Results pooled from the literature.
Several values in a cell are separate wells, animals, samples, runs or records. ± marks the error that the study gave.

Structure (SMILES)	assay	system	setting	measurement	result
C=C(CN(C(=O)c1c(C(F)F)nn(C)c1F)C1CC1)c1ccc(Cl)cc1Cl	static acute toxicity test	zebrafish (Brachydanio rerio)	1.00 mg a.i./L, 48 h	mortality	20%
COc1ncccc1-c1cnn2ccc(N3CCN(C(=O)OC(C)C)CC3)nc12	–	mouse formalin model, plasma	oral, 60 mg/kg, 60 min	free plasma concentration	510 nM
CC(C)C[C@H](NC(=O)[C@H](CCCCN)NC(=O)OCC1c2ccccc2-c2ccccc21)C(=O)N[C@H](C(=O)N[C@@H](Cc1ccccc1)C(=O)N[C@@H](Cc1ccccc1)C(=O)N[C@@H](CCCCN)C(=O)NCC(=O)N[C@@H](Cc1ccccc1)C(=O)N[C@@H](C)C(=O)N[C@@H](Cc1c[nH]c2ccccc12)C(=O)N[C@@H](CC(N)=O)C(=O)N[C@H](C(=O)N[C@H]1CSSC[C@@H](C(=O)N[C@@H](Cc2c[nH]cn2)C(=O)N[C@@H](CCCNC(=N)N)C(=O)N[C@@H](CCCNC(=N)N)C(=O)N[C@@H](C)C(=O)N[C@@H](CC(N)=O)C(N)=O)NC(=O)[C@H](C(C)C)NC(=O)[C@H](CCCNC(=N)N)NC(=O)[C@H](C(C)C)NC(=O)CNC(=O)[C@H](CC(N)=O)NC(=O)[C@H](CCCNC(=N)N)NC(=O)[C@H](Cc2ccc(O)cc2)NC(=O)[C@H](C(C)C)NC1=O)C(C)C)C(C)C	HPLC	mouse mammary gland homogenate	2560 µM, 2.00 h, 37 °C, 50 mg/mL tissue	remaining peptide	90.9% and 88%
O=C(c1ccc(F)c(F)c1Nc1ccc(I)cc1F)N1CC(O)([C@@H]2CCCCN2)C1	–	patients aged 6 to sample A years	oral, dose not given	related AE dose modification	19%
C[C@]1(CO)Cc2ncn(-c3ccc(C#N)c(Cl)c3)c2C(=O)O1	–	human	10 mg, European food-effect part, fasted	drug-related urine abnormality	0%
CN(C(=O)n1cnc(-c2ccc[n+]([O-])c2)c1)C1CCCCC1	–	Wistar rat, pons	oral, 10 mg/kg/day, 72 h, repeated 5 days	concentration	14.3 ± 0.5 ng/g
Cc1nc([C@@](C)(CC2CC2)NC(=O)c2cc(OCC(F)(F)F)c(C3CC3)cn2)no1	–	C57BL/6 mice	intravenous, 0.5 mg/kg	half-life	249 min
C[C@]1(O)C[C@@](N)(c2ccc(-c3nc4n(c3-c3ccccc3)COc3ccncc3-4)cc2)C1	–	human, advanced or metastatic solid tumours	16 mg once daily, dose-response cohort	patients with Hyperphosphatemia TEAE	0%
COc1cc2nccc(Oc3ccc(NC(=O)c4cc5c(n(-c6ccccc6)c4=O)CCCC5=O)nc3)c2cc1OC	–	relapsed/refractory AML patients	oral, 6 mg once daily	fatal drug-related TEAEs	0%
COc1cc2c(Oc3ccc4[nH]c(C)cc4c3F)ccnc2cc1OCC1(N)CC1	–	paediatric recurrent refractory sarcoma	10 mg	grade 3 Tinnitus	0%
CC(=O)c1c(C)c2cnc(Nc3ccc(C4CCN(CCS(C)(=O)=O)CC4)cn3)nc2n(C2CCCC2)c1=O	–	HR+/HER2- advanced breast cancer patients	oral, dose not given, all grades,, sample A patients	patients with neutropenia	97.5%
CN1CC[C@@H](c2c(O)cc(O)c3c(=O)cc(-c4ccc(C(F)(F)F)cc4Cl)oc23)[C@@H]1CO	refers to: Constipation	relapsed or refractory haematological malignancies	oral, dose not given, all grades	adverse event incidence	17% and 17.5%
CO[C@H]1C[C@@H]2CC[C@@H](C)[C@@](O)(O2)C(=O)C(=O)N2CCCC[C@H]2C(=O)O[C@H]([C@H](C)C[C@@H]2CC[C@@H](OC(=O)NCCOCCOCCOCCOCCOCCOCCOCCOCCC(=O)N3CCc4cc(Cn5nc(-c6ccc7oc(N)nc7c6)c6c(N)ncnc65)ccc4C3)[C@H](OC)C2)C[C@@H](O)[C@H](C)/C=C(\C)[C@@H](O)[C@@H](OC)C(=O)[C@H](C)C[C@H](C)/C=C/C=C/C=C/1C	–	patients with advanced solid tumours	intravenous, 12 mg weekly, grade 3 or higher	AE leading to discontinuation	16.7%
CC(C)n1c(C2CCNCC2)nc2c([N+](=O)[O-])c(Br)c(Br)cc21	refers to: Neutropenia	AML patients	dose not given, all doses	related grade ≥3 adverse events	8%
O=C(Nc1ccccc1)C1CCN(C(=O)Oc2cccnc2)CC1	adverse event reporting	healthy women	oral, 20 mg	subjects with Syncope adverse event	7.1%
C[C@@H](NC(=O)N1C(=O)[C@H](Cc2ccnc(N)c2)[C@H]1C(=O)O)C1CCCCC1	–	healthy adult Chinese volunteers	continuous intravenous infusion, 2.25 mg/kg/h, 5-day infusion, CTCAE 5.0 grading	incidence of urine ketone body positive	0%
CCCCCCCCCCCCCCCC(=O)N[C@@H](CCC(=O)NCCCC[C@H](NC(=O)[C@H](CC(=O)O)NC(=O)[C@H](CO)NC(=O)[C@@H](NC(=O)[C@H](Cc1ccccc1)NC(=O)[C@@H](NC(=O)CNC(=O)[C@H](CCC(N)=O)NC(=O)[C@H](CO)NC(=O)[C@@H](N)Cc1c[nH]cn1)[C@@H](C)O)[C@@H](C)O)C(=O)N[C@@H](CO)C(=O)N[C@@H](CCC(=O)O)C(=O)N[C@@H](Cc1ccc(O)cc1)C(=O)N[C@@H](CC(C)C)C(=O)N[C@@H](CC(=O)O)C(=O)N[C@@H](CO)C(=O)N[C@@H](CCC(=O)O)C(=O)N[C@@H](CCCNC(=N)N)C(=O)N[C@@H](C)C(=O)N[C@@H](CCCNC(=N)N)C(=O)N[C@@H](CC(=O)O)C(=O)N[C@@H](Cc1ccccc1)C(=O)N[C@H](C(=O)N[C@@H](C)C(=O)N[C@@H](Cc1c[nH]c2ccccc12)C(=O)N[C@@H](CC(C)C)C(=O)N[C@@H](CCC(=O)O)C(=O)N[C@@H](C)C(=O)NCC(=O)NCC(=O)O)C(C)C)C(=O)O	–	human, CrCl ≥20 to <30 mL/min	sc, 100 µg single dose	injection site bruising	0%
Cn1cncc1-c1c(F)cncc1NC(=O)c1c(N)nn2cc(F)cnc12	–	human patients	oral, 130 mg once daily	grade ≥3 platelet decrease incidence	0%
CC[C@H](C)[C@H](NC(=O)[C@H](Cc1ccccc1)NC(=O)[C@H](CCC(=O)O)NC(=O)[C@H](CCCNC(=N)N)NC(=O)[C@H](C)NC(=O)[C@H](C)NC(=O)[C@H](CCC(N)=O)NC(=O)[C@H](CCC(=O)O)NC(=O)[C@H](CCC(=O)O)NC(=O)[C@H](CC(C)C)NC(=O)[C@H](Cc1ccc(O)cc1)NC(=O)[C@H](CO)NC(=O)[C@H](CO)NC(=O)[C@@H](NC(=O)[C@H](CC(=O)O)NC(=O)[C@H](CO)NC(=O)[C@@H](NC(=O)[C@H](Cc1ccccc1)NC(=O)[C@@H](NC(=O)CNC(=O)[C@H](CCC(=O)O)NC(=O)[C@H](C)NC(=O)CCc1cnc[nH]1)[C@@H](C)O)[C@@H](C)O)C(C)C)C(=O)N[C@@H](C)C(=O)N[C@@H](Cc1c[nH]c2ccccc12)C(=O)N[C@@H](CC(C)C)C(=O)N[C@H](C(=O)N[C@@H](CCCNC(=N)N)C(=O)NCC(=O)N[C@@H](CCCNC(=N)N)C(=O)N[C@@H](CCCCNC(=O)COCCOCCNC(=O)COCCOCCNC(=O)CC[C@H](NC(=O)CCCCCCCCCCCCCCCCC(=O)O)C(=O)O)C(=O)NCC(=O)NCC(=O)N[C@@H](CO)C(=O)N[C@@H](CCSC)C(=O)N[C@H](C(=O)N[C@@H](CCCCNc1c(NCCCCCN(O)C(=O)CCC(=O)NCCCCCN(O)C(=O)CCC(=O)NCCCCCN(O)C(C)=O)c(=O)c1=O)C(=O)O)C(C)C)C(C)C [zirconium-89 labelled]	ex vivo gamma counting	male Sprague-Dawley rats, intestine	intravenous, 5 MBq (1 nmol), 72 h	tissue uptake	0.062 %ID/g and 0.068 %ID/g and 0.082 %ID/g

Structure (SMILES)	assay	system	setting	measurement	result
CCc1ccc(CC/C=C/c2ccc3c(c2)C(=O)CC3)cc1	–	Sprague-Dawley rat, female	oral, 120 mg/kg/day, 14 days	TC	1.91 mM
CCC[C@@](N)(CO)CCc1ccc(OCCCCCC(C)C)cc1	–	dog	oral, 10 mg/kg	Cmax	343 nM
CC1(C)C(/C=C(\Cl)C(F)(F)F)C1C(=O)OC(C#N)c1cccc(Oc2ccccc2)c1 (stereo not shown)	refers to: CYP2C19	human, age 5 years	–	enzyme contribution to clearance	0.5%
O=C(Oc1ccccc1)[c-]1cccc1.[Fe+2].c1cc[cH-]c1	cyclic voltammetry	methanol/DMEM 1:1 with TBAPF6	Pt disk electrode, Ag/AgCl reference, together with: scan rate 100 mV/s	oxidation potential	653 mV
NCCCC[C@@H]1NC(=O)[C@@H](Cc2c[nH]c3ccccc23)NC(=O)[C@H](c2ccccc2)NC(=O)[C@@H]2C[C@@H](OC(=O)NCCN)CN2C(=O)[C@H](Cc2ccccc2)NC(=O)[C@H](Cc2ccc(OCc3ccccc3)cc2)NC1=O	–	healthy volunteers, male	600 µg twice daily, 4.0 h, post hoc	placebo-corrected QTcF change	7.3 ms
O=C1Nc2cc3[nH]nc(-c4ccncc4)c3cc2CN1Cc1ccccc1	refers to: Diarrhea	patients with advanced solid tumours	intravenous, dose not given, all schedules	patients with TEAE	12%
COc1ncnn2ccc(-c3cnc4nc(C)n(Cc5nnc([C@@H](C)F)o5)c4c3)c12	–	human patients	oral, dose not given	incidence of nail discoloration (all grades)	14.3%
CC(C)[C@@H]1NC(=O)CNC(=O)[C@H](CC(N)=O)NC(=O)[C@H](CCCNC(=N)N)NC(=O)[C@H](Cc2ccc(O)cc2)NC(=O)[C@H](C(C)C)NC(=O)[C@@H](NC(=O)[C@@H](NC(=O)[C@H](CC(N)=O)NC(=O)[C@H](Cc2c[nH]c3ccccc23)NC(=O)[C@H](C)NC(=O)[C@H](Cc2ccccc2)NC(=O)CN)C(C)C)CSSC[C@@H](C(=O)N[C@@H](Cc2c[nH]cn2)C(=O)N[C@@H](CCCNC(=N)N)C(=O)N[C@@H](CCCNC(=N)N)C(=O)N[C@@H](C)C(=O)N[C@@H](CC(N)=O)C(N)=O)NC(=O)[C@H](C(C)C)NC(=O)[C@H](CCCNC(=N)N)NC1=O	circular dichroism, refers to: β-Turn	PBS	80 µM, pH 7.4	secondary structure content	21.6%
C=CCNc1c(O)cc2c(O)c1C[C@@H](C)C[C@H](OC)[C@H](O)[C@@H](C)/C=C(\C)[C@H](OC(N)=O)[C@@H](OC)/C=C\C=C(/C)C(=O)N2	–	unresectable or metastatic STS, GIST, other	intravenous, 90 mg/m^2	patients with myalgia TEAE	17%
CCN1[C@@H](C(=O)NC23CCC(C(=O)O)(CC2)CC3)[C@H](c2cccc(Cl)c2F)[C@]2(C(=O)Nc3cc(Cl)ccc32)C12CCCCC2	–	patients with advanced solid tumours	oral, 150 mg	grade ≥3 Thrombocytopenia incidence	50%
O=S(=O)(Nc1ccccc1)c1ccc(NC(=S)Nc2ccccc2)cc1	–	female mouse, blood	oral, 20 mg/kg daily, 14 days	chloride level	110 mmol/L
CC(C)(O)c1cc(Nc2cc(Oc3cn(C4CC4)nc3C3CCOCC3)ccn2)ccn1	refers to: Thrombocytopenia	Japanese patients with advanced cancer	oral, dose not given, any grade	treatment-emergent adverse events	0%
CC[C@H](C)CCCCC(=O)N[C@@H](CCN)C(=O)N[C@H](C(=O)N[C@@H](CCN)C(=O)N[C@H]1CCNC(=O)[C@H]([C@@H](C)O)NC(=O)[C@H](CCN)NC(=O)[C@H](CCN)NC(=O)[C@H](CC(C)C)NC(=O)[C@@H](Cc2ccccc2)NC(=O)[C@H](CCN)NC1=O)[C@@H](C)O	–	critically ill patients, plasma	dose not given, median, fifth infusion	steady-state concentration at 6 h	2.7 µg/mL
CC(C)Nc1ccnc(Nc2cccc(-c3cccnc3)c2)n1	refers to: amylase	mouse, blood	intraperitoneal, 5 mg/kg	blood chemistry	3660 U/L
COc1cc(C2C3=C(COC3=O)N(CCO)c3cc4c(cc32)CCC4)cc(OC)c1OC (stereo not shown)	–	female C57BL/6 mice	intraperitoneal, 100 mg/kg, 72 h, single dose, mean	body weight	23 g
COc1ccc([C@@H]2CC(=O)c3c(O)cc(O)cc3O2)cc1O	–	male Sprague-Dawley rat, obese	oral, 100 mg/kg of neohesperidin, 24 to 36 h	faecal excreted amount	8630 ± 5990 ng
COc1cccc(Oc2ccccc2NC(=O)CNC(=O)c2cccc3ccccc23)c1	–	esterase-deficient SCID mice, male, blood	oral, 100 mg/kg/day, 14 days, toxicity study	mean corpuscular volume	46 fL and 44 fL and 48 fL
N=C(N)NCCC[C@@H](NC(=O)[C@@H](N)Cc1ccccc1)C(=O)N[C@@H](Cc1ccccc1)C(=O)N[C@@H](CCCCN)C(N)=O	LC-MS	human	5 mg, 11.83 h	mean fraction excreted in urine	6.04%

Some of these lines once more:
Structure (SMILES)	assay	system	setting	measurement	result
C[C@@H](NC(=O)N1C(=O)[C@H](Cc2ccnc(N)c2)[C@H]1C(=O)O)C1CCCCC1	–	healthy adult Chinese volunteers	continuous intravenous infusion, 2.25 mg/kg/h, 5-day infusion, CTCAE 5.0 grading	incidence of urine ketone body positive	0%
CC(C)Nc1ccnc(Nc2cccc(-c3cccnc3)c2)n1	refers to: amylase	mouse, blood	intraperitoneal, 5 mg/kg	blood chemistry	3660 U/L
C[C@]1(CO)Cc2ncn(-c3ccc(C#N)c(Cl)c3)c2C(=O)O1	–	human	10 mg, European food-effect part, fasted	drug-related urine abnormality	0%
CC(C)C[C@H](NC(=O)[C@H](CCCCN)NC(=O)OCC1c2ccccc2-c2ccccc21)C(=O)N[C@H](C(=O)N[C@@H](Cc1ccccc1)C(=O)N[C@@H](Cc1ccccc1)C(=O)N[C@@H](CCCCN)C(=O)NCC(=O)N[C@@H](Cc1ccccc1)C(=O)N[C@@H](C)C(=O)N[C@@H](Cc1c[nH]c2ccccc12)C(=O)N[C@@H](CC(N)=O)C(=O)N[C@H](C(=O)N[C@H]1CSSC[C@@H](C(=O)N[C@@H](Cc2c[nH]cn2)C(=O)N[C@@H](CCCNC(=N)N)C(=O)N[C@@H](CCCNC(=N)N)C(=O)N[C@@H](C)C(=O)N[C@@H](CC(N)=O)C(N)=O)NC(=O)[C@H](C(C)C)NC(=O)[C@H](CCCNC(=N)N)NC(=O)[C@H](C(C)C)NC(=O)CNC(=O)[C@H](CC(N)=O)NC(=O)[C@H](CCCNC(=N)N)NC(=O)[C@H](Cc2ccc(O)cc2)NC(=O)[C@H](C(C)C)NC1=O)C(C)C)C(C)C	HPLC	mouse mammary gland homogenate	2560 µM, 2.00 h, 37 °C, 50 mg/mL tissue	remaining peptide	90.9% and 88%
